Experimental data pooled from the literature.
Compare with care: the assays were run in different laboratories. “And” joins repeats or separate records; there may be more than shown.
Target: Maternal embryonic leucine zipper kinase (MELK, Homo sapiens, UniProt Q14680)

SMILES	assay	system	setting	scale	measurement	value
COc1ccc(NC(=O)Nc2ccc3c(c2)C(=O)N(C(C)CO)CC(C)C(CN(C)Cc2ccc4c(c2)OCO4)O3)cc1 (centres unmarked)	kinase activity, KinaseProfiler	–	0.03 µM, species human	baseline: control	remaining activity	98%
COCC12C(=O)NC3C4(C(OC)CC1O)C1CC5(O)C(OC)C(O)C(OC(C)=O)(C1C5OC(=O)c1ccccc1)C3(O)C(OC)C24 (centres unmarked)	kinase activity, inhibitor, ProQinase kinase profiling	–	25 µM	baseline: control	remaining activity	96% and 92%
C=CC(=O)N1CCc2ccc(-n3c(=O)ccc4cnc5ccc(-c6cnn(C)c6)cc5c43)cc21	KINOMEscan	–	1 µM	baseline: DMSO control	remaining binding	100%
Cc1ccc(-c2c(/C=C(\C#N)C(=O)NC(C)C)n(CCCO)c3ncnc(N)c23)cc1	cell-free assay, competition with immobilised ligand	–	1 µM	–	remaining binding	100%
Cc1cccc(-c2ccc3nc(NC(=O)C4CCCCC4)nn3c2)c1	enzyme activity, Dundee kinase panel	–	10 µM	–	remaining activity	71%
C=CC(=O)N1Cc2nc(-c3cc(-c4cc(Cl)cnc4Cl)c(F)cc3F)n(-c3ccncn3)c2C1	cell-free assay, inhibitor	–	1 µM	–	inhibition	13.3%
O=C(Nc1ccc(Oc2ncnc3[nH]cc(-c4ccccc4)c23)c(F)c1)c1c2n(n(-c3cc(F)ccc3F)c1=O)CCCC2	enzyme activity, inhibitor	–	0.5 µM	–	inhibition	10%
C=CC(=O)Nc1cccc(-c2cnc3[nH]cc(C(=O)NC(C)(C)C)c3n2)c1	enzyme activity, inhibitor	–	0.1 µM	–	inhibition	11%
Nc1ncc2c(n1)-c1c([nH]c3ccc(C4=CCOCC4)cc13)CCC2	binding, competition with immobilised ligand	–	1 µM	–	remaining binding	100%
CS(=O)(=O)Nc1cccc(-c2csc3cnc(Nc4ccc(N5CCN(CCCCCOc6cccc7c6C(=O)N(C6CCC(=O)NC6=O)C7=O)CC5)cc4)nc23)c1 (centres unmarked)	probe labelling, inhibitor, KiNativ chemoproteomics	MOLT-4	1 µM	–	inhibition	19.5%
O=C(Cc1ccc(OCc2ccccc2)cc1)NC1(C(=O)O)CCN(C(=O)c2ccc(-c3cccc(Cl)c3)cc2)CC1	enzyme activity, inhibitor	–	10 µM	–	activity vs control	102%
Cc1cccc(O[C@H]2CCC[C@@H](C(C)CNCc3ccncc3)C2)c1 (relative stereo)	enzyme activity, inhibitor	–	1 µM	–	inhibition	3%
C=CC(=O)Nc1cc(-c2nn(C3CCN(CCNC(=O)[C@H](C)CCC45CC6CC(CC(C6)C4)C5)CC3)c3ncnc(N)c23)ccc1Oc1ccccc1	inhibitor, KiNativ profiling	biochemical	2 µM	–	inhibition	-14.2%
CNC1C[S+]2CC[S+]3CC[S+](C1)[Ru-4]321([N]=C=S)[n]2c3ccc(OC)cc3c3c4c(c5cc(F)c[n+]1c5c32)C(=O)NC4=O (centres unmarked)	KinomeScan	–	0.1 µM	baseline: untreated	remaining binding	29%
NC(=O)[C@@H](O)C[C@H]1CCc2sc3ncnc(O[C@H]4CC[C@H](N5CCOCC5)CC4)c3c21	enzyme activity, inhibitor	–	10 µM	–	inhibition	9%
Cc1cccc(-c2ccc3nc(NC(=O)C4CCOCC4)nn3c2)c1	enzyme activity, Dundee kinase panel	–	10 µM	–	remaining activity	69%
CCN1CCN(Cc2ccc(C(=O)Nc3ccc(C)c(NCc4cnc5[nH]ccc5c4OC)c3)cc2C(F)(F)F)CC1	binding, competition with immobilised ligand	–	1 µM	–	remaining binding	73%
COc1cc(Nc2nccc(-c3cnn4nc(OC)ccc34)n2)cc(C(F)(F)F)c1	binding, competition with immobilised ligand	–	1 µM	–	remaining binding	100%
C[C@H]1CN(C(=O)c2cn(-c3ccnc(N)n3)c3cc(C#CC4(O)CCCCC4)ccc23)CCN1	enzyme activity, inhibitor, FRET	–	1 µM	–	inhibition	3%
Cc1cnc2nc1Nc1cccc(c1)COC/C=C/COCc1cc(ccc1OCCN1CCOCC1)N2	binding	–	0.1 µM	–	remaining binding	93%

Repeated from above:
SMILES	assay	system	setting	scale	measurement	value
C=CC(=O)N1Cc2nc(-c3cc(-c4cc(Cl)cnc4Cl)c(F)cc3F)n(-c3ccncn3)c2C1	cell-free assay, inhibitor	–	1 µM	–	inhibition	13.3%
COc1ccc(NC(=O)Nc2ccc3c(c2)C(=O)N(C(C)CO)CC(C)C(CN(C)Cc2ccc4c(c2)OCO4)O3)cc1 (centres unmarked)	kinase activity, KinaseProfiler	–	0.03 µM, species human	baseline: control	remaining activity	98%
